Measured values pooled from the literature.
Compare with care: the assays were run in different laboratories. Numbers after ± are the reported error.

With `CN1C(=O)[C@@H](NC(=O)c2nnc(Cc3ccccc3)[nH]2)COc2cccnc21` the terminal half-life was 5.67 h (healthy human, fasted, plasma; oral, 30 mg single dose, geometric mean).
`CCOCc1nc(O)c(-c2nnc(Cc3ccc(Cl)cn3)o2)c(O)c1-c1c(OC)cccc1OC` gave a plasma concentration of 54 nM (rat, anaesthetised, cannulated, plasma; intravenous infusion, 1 µg/kg/min, 5 min).
Under “serious adverse events”, `CCO` is recorded as 0% (human).
The Tmax of `NC1(C(=O)N[C@@H](CCO)c2ccc(Cl)cc2)CCN(c2nc[nH]c3nccc2-3)CC1` is reported as 1 h (LC-MS/MS, non-compartmental; human patients, plasma; 160/320 mg cohort, cycle 0, median, with: enzalutamide).
With `CCOc1c([C@H](C)n2nc(C)c3c(N)ncnc32)cc(Cl)c(F)c1[C@@H]1CNC(=O)C1` the ECG observations was 96.8% (measured: QRS ≤100 ms; previously treated B-cell malignancy; oral, 30 mg once daily, baseline below thresholds).
For `C[C@@H](Nc1cc(F)cc(F)c1)c1cc(C(=O)N(C)C)cc2c(=O)cc(N3CCOCC3)oc12`, “share of patients with dose reduction” read 0% (patients with advanced solid tumours; oral, 60 mg twice daily, monotherapy dose-expansion, 5:2 schedule).
Under “adverse event incidence”, `FC(F)(F)c1ccc(CNc2ccc(Cc3c[nH]c4ncc(Cl)cc34)cn2)cn1` is recorded as 13% (measured: Pruritus; patients with advanced solid tumours; oral, dose not given, grade 1 and 2, possibly related to drug).
For `O=C(CCCCCCC(=O)Nc1ccc(CC[18F])cc1)NO`, the tissue uptake was 3.3 ± 0.4 %ID/g (athymic nu/nu male mice, LNCaP xenograft, blood; intravenous, 0.5 h).
`COc1cc2c3c(n(CCCNC(C)C)c(=O)c2cc1OC)-c1nc2c(cc1C3=O)OCO2` has a dose-normalized AUC(0-t) of 143 ng·h/mL (male CD1 mouse, plasma; intravenous, 1 mg/kg).
`C[C@H]1CN(C(=O)CC#N)[C@]12CCN(c1ncnc3[nH]ccc13)C2`: “participants with treatment-related TEAEs” 0% (human; oral, 12 mg single dose).
`O=C(Nc1nc2cccc(-c3ccc(CN4CCS(=O)(=O)CC4)cc3)n2n1)C1CC1`: “treatment-emergent adverse events” 0% (measured: blood and lymphatic disorders; rheumatoid arthritis patients; oral, 200 mg once daily, 4 weeks, any relatedness).
With `N#Cc1ccc2c(c1)[C@H]1CCCN(C(=O)c3ccc4[nH]cnc4c3)[C@H]1C2` the DHEA-S level was 5 µmol/L (human, female; 240 mg, day 7).
For `C=CC(=O)NC1CCN(c2ncc3ncnc(Nc4ccc(Oc5ccc6c(c5)ncn6C)c(C)c4)c3n2)CC1`, “adverse events incidence” read 0% (measured: investigations (SOC); human male; oral, dose not given, CTCAE on-treatment AEs).
`O=C(c1cccnc1-c1ccncc1)N1CCC(O)(Cc2ccccc2)CC1` has a Vz/F of 2940 L (healthy Japanese adults, plasma; oral, 100 mg twice daily, day 7).
The reactivity half-life of `C=CS(=O)(=O)Nc1ccc(OC)c(-c2c[nH]c3ncc(-c4cncc(C(=O)N(C)C)c4)cc23)c1` is reported as over 24 h (HPLC; acetonitrile/water/DMSO; 50 µM, 37 °C, DIPEA 20 eq, with: N-α-acetyl-lysine).
Under “QTcI change from baseline”, `COc1c(N2C[C@@H]3CCCN[C@@H]3C2)c(F)cc2c(=O)c(C(=O)O)cn(C3CC3)c12` is recorded as -6.5 ms (healthy volunteers; oral, 400 mg single dose, day 5, 0.25 h).
`C=CC(=O)N1CCC(c2ccc(C(N)=O)c(-c3ccc(Oc4ccccc4)cc3)n2)CC1`: “incidence of serious GI infection” 0.9% (CTCAE 4.03; patients with relapsed/refractory MCL; oral, dose not given).

For quick reference, copied from above:
With `N#Cc1ccc2c(c1)[C@H]1CCCN(C(=O)c3ccc4[nH]cnc4c3)[C@H]1C2` the DHEA-S level was 5 µmol/L (human, female; 240 mg, day 7).
